Assay results collected from several papers.
Each numbered part is a random draw from the data of one study; scales do not carry over between parts.

Set 1 — read-out: enzyme activity; mode: inhibitor; tested at: 20 µM; setting: hit confirmation
Target: Replicase polyprotein 1ab, main protease (rep, Severe acute respiratory syndrome coronavirus 2, UniProt P0DTD1)
Compound	inhibition
c1ccc2sc(SSc3nc4ccccc4s3)nc2c1	109%
COc1cc(/C=C(\C#N)C(N)=O)cc(CSc2nc3ccccc3s2)c1O	23%
Clc1ccc(C(OCCN2CCCCC2)c2ccccc2)cc1 (stereo not drawn)	-19.5%
Oc1ccc2c3c1O[C@H]1c4[nH]c5ccccc5c4C[C@@]4(O)C(C2)N(CC2CC2)CC[C@]314	-5.9%
CC[C@]1(O)C[C@@H]2C[N@@](CCc3c([nH]c4ccccc34)[C@@](C(=O)OC)(c3cc4c(cc3OC)N(C)[C@H]3[C@@](O)(C(=O)OC)[C@H](OC(C)=O)[C@]5(CC)C=CCN6CC[C@]43[C@@H]65)C2)C1	22.1%

Set 2 — method: protein-binding microarray; form: double-stranded DNA, one strand shown; sample: in vitro; tested at: 2200 nM top; setting: 60-bp whole probe; together with: salmon DNA 0.4 mg/ml; relative to: random background probes; direction: higher = stronger binding; shared flanks, not repeated: GCCTAGCAC … GTCTTGATTCGCTTGACGCTGCTG
Target: Interferon regulatory factor 7, full length, phosphomimetic (IRF7, Homo sapiens, UniProt Q92985, residues 1-503, S471D/S472D/S475D/S476D/S477D/S483D/S484D/S487D)
Construct (chain): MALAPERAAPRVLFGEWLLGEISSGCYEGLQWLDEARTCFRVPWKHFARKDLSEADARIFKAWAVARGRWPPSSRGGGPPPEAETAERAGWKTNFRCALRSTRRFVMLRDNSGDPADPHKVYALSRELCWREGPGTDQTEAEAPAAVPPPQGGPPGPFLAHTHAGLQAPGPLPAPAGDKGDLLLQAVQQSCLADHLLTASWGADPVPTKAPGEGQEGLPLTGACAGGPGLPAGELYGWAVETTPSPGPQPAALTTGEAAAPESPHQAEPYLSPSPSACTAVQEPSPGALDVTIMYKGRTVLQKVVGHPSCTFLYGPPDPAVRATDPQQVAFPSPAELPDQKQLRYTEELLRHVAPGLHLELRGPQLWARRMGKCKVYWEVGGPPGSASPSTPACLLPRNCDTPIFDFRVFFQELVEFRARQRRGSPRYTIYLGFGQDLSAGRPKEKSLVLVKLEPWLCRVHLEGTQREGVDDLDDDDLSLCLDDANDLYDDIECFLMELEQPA
Strand	fitted relative affinity [z-score]
TTAGGTATCCTTCTCCTTCAGTGCTAG	1.41
TTAGGTCGCGGTCTCGGTTAGTGCTAG	0.357
TCAAACCTGGGTCTCTGACTGTGCTAG	-0.077
TTAGAACTGAGACTGGCTTAGTGCTAG	-0.496
TTAGAAGTGAGTTTCGATTAGTGCTAG	3.68
GACGGTATCGGGACAGGGGACGTGCTA	-0.35
GACGATAACGGGACTGGAGACGTGCTA	-0.563
TCAAATGTCCTTTCTCCAACTGTGCTA	1.26

Set 3 — mode: inhibitor; tested at: 20 µM
Target: Replicase polyprotein 1ab, nsp13 helicase (rep, Severe acute respiratory syndrome coronavirus 2, UniProt P0DTD1)
SMILES	inhibition [%]
COc1ccc(O)cc1	6.98
N=C(N)c1ccc(-c2ccc(-c3ccc(C(=N)N)cc3)o2)cc1	57.6
CC(=O)Nc1c(I)c(C(=O)O)c(I)c(N(C)C(C)=O)c1I	-5.17
CC(C(=O)O)c1ccc(N2Cc3ccccc3C2=O)cc1 (stereo not drawn)	-1.34
CC[C@H]1CN2CC[C@H]1C[C@@H]2[C@@H](O)c1ccnc2ccc(OC)cc12	4.7
COC(=O)CC1CC(c2ccc(O)cc2)=NO1 (stereo not drawn)	13.8
CCCn1c(=O)[nH]c(=O)c2[nH]cnc21	10.6
NC(=O)NC(=O)Cc1ccccc1	-2.69
CCC(=O)O[C@@](Cc1ccccc1)(c1ccccc1)[C@@H](C)CN(C)C	1.12
Oc1ccc2ccccc2c1SSc1c(O)ccc2ccccc12	81
O=C(/C=C/c1ccc(O)c(O)c1)OCCc1ccccc1	1.32
O=C(O)c1ccccc1Nc1cccc(OCc2ccc3ccccc3n2)c1	3.2
O=C(O[C@H]1[C@H](OC(=O)c2cccnc2)[C@@H](OC(=O)c2cccnc2)[C@H](OC(=O)c2cccnc2)[C@@H](OC(=O)c2cccnc2)[C@H]1OC(=O)c1cccnc1)c1cccnc1	-2.18
O=[N+]([O-])c1ccc(O)c([N+](=O)[O-])c1	6.61
O=C(O)c1cc(O)c2c3nc4ccccc4oc-3cc(=O)c2n1	22.8
CC(=O)N(O)CCCCCNC(=O)CCC(=O)N(O)CCCCCNC(=O)CCC(=O)N(O)CCCCCN	0.75
O=c1[nH]c2cc(Cl)ccc2c(O)c1-c1cccc(Oc2ccccc2)c1	3.24
COc1cc2nc(N3CCN(C(=O)c4ccco4)CC3)nc(N)c2cc1OC	6.84
COc1ccc([C@@H]2Sc3ccccc3N(CCN(C)C)C(=O)[C@@H]2OC(C)=O)cc1	5.43
O=C(O)c1ccc(N2C(=O)/C(=C\c3ccc(-c4ccc([N+](=O)[O-])cc4)o3)C=C2c2ccccc2)cc1	70.5
O=C1NC(=O)c2c1c1c3ccccc3n3c1c1c2c2ccccc2n1[C@H]1CC[C@@H]3O1	-0.67
Cc1cccc(CC(=O)N2CCc3c2ccc(-c2cn(C)c4ncnc(N)c24)c3F)n1	7.65
C=C[C@]1(C)CC[C@@H](C(=C)C)C[C@H]1C(=C)C	2.12
NCC(CS(=O)(=O)O)c1ccc(Cl)cc1 (stereo not drawn)	1.3
Cc1cc(OCC(=O)O)cc(C)c1Cc1ccc(O)c(C(C)C)c1	3.76

Set 4 — cell line: HEK-293T; read-out: pseudovirus infection; organism: VSV pseudotyped with SARS-CoV-2 spike; tested at: 10 µM; time: 16 h; relative to: vehicle-treated
Structure (SMILES)	GFP-positive cells
C[C@H](Cc1cc2c(c(C(N)=O)c1)N(CCCO)CC2)NCCOc1ccccc1OCC(F)(F)F	103%
C=CC(N)CCC(=O)O (stereo not drawn)	106%
CCCCCCCCCCCCCCCC[N+](C)(C)CCN(Cc1ccc(OC)cc1)c1ncccn1	55.8%
CN1CCC(=C2c3ccccc3CCn3c(C=O)cnc32)CC1	83.2%

Set 5 — method: protein-binding microarray; form: double-stranded DNA, one strand shown; sample: in vitro; tested at: 0.8 µM; setting: whole 60-bp probe, no competitor; direction: higher = stronger binding; shared flanks, not repeated: … GTCTTGATTCGCTTGACGCTGCTG
Target: Centromere-binding protein 1, full length, N-terminal tag (CBF1, Saccharomyces cerevisiae, UniProt P17106, residues 1-351)
Sequence of UniProt P17106 (whole entry, looked up): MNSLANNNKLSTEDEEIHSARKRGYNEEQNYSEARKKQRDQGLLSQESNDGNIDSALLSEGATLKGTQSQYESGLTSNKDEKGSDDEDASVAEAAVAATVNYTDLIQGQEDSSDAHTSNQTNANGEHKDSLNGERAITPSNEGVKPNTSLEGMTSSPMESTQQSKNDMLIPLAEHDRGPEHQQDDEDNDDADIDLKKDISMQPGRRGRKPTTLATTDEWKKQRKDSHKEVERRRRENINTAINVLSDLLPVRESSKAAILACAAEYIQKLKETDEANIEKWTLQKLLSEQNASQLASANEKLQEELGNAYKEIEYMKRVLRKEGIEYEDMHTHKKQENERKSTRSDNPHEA
Strand	fluorescence intensity
GAAATGACTTGCGAAGGCATGATGCTTTGATTTTAG	531 a.u.
GAAAATTTATTTCCCCTCATGATAAAACAAGATTAG	584 a.u.
GAATATAGCTACACTCTCAACTGATTGCTTCACTAG	485 a.u.
TGTACGAAGCTATTTCACGTTGTTATAGTAGTTAGG	603 a.u.
TGTACGAAGCTATCGCACCTGATTATAGTAGTTAGG	668 a.u.
CTATATAAATGACATGATGTGAGCCTTAGTAAGTTC	544 a.u.
CTATTGGAATGATATCACGTTCGAAGTCTCTGTTTC	781 a.u.
CTAAACCCTGTCAATCTCCTGAAAAACAAAAATTTC	523 a.u.

Set 6 — method: protein-binding microarray; form: double-stranded DNA, one strand shown; sample: in vitro; tested at: not given; direction: higher = stronger binding
Target: Hepatocyte nuclear factor 3-beta, forkhead domain (FOXA2, Homo sapiens, UniProt Q9Y261, residues 142-269)
Setting: k-mer, scored over probes, only values ≥0.25
Residues (chain): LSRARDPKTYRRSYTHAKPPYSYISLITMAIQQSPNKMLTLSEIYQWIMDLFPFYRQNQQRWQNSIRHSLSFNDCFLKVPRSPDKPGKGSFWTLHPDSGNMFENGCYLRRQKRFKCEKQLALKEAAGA
Strand	E-score
AATGTGGG	0.264
AGCAAATA	0.281
TAGTCACA	0.252
AATGTAAA	0.342
ACAACTAA	0.317
AACAACAA	0.353
GTATTTTA	0.294

Excerpt of the above (set 5):
Strand	fluorescence intensity
TGTACGAAGCTATTTCACGTTGTTATAGTAGTTAGG	603 a.u.
CTATATAAATGACATGATGTGAGCCTTAGTAAGTTC	544 a.u.
GAATATAGCTACACTCTCAACTGATTGCTTCACTAG	485 a.u.
GAAATGACTTGCGAAGGCATGATGCTTTGATTTTAG	531 a.u.
CTAAACCCTGTCAATCTCCTGAAAAACAAAAATTTC	523 a.u.
CTATTGGAATGATATCACGTTCGAAGTCTCTGTTTC	781 a.u.
TGTACGAAGCTATCGCACCTGATTATAGTAGTTAGG	668 a.u.
